# Results pooled from the literature.
# Every numbered part comes from another study and shows a few of its results, in no order. Positions count from the first letter of the parent shown.

# Study 1 — target: CCNE1, cyclin fold, Cln2 fusion (human); technique: yeast growth competition, sequencing; sample: yeast; setting: weak parent motif; relative to: not given; reading: higher = stronger binding
# Starting sequence: SLBP docking peptide (human); ARYKRKLLINDFG
Substitution,normalised enrichment score
R2V,0.575
I9N,0.3
I9R,0.705
R5V,0.923
R2G,1.01
Y3V,0.708
G13F,0.825
N10C,0.608
K6D,0.204
L7K,-0.0988
K6F,0.195
L8I,0.371
K6T,1.05
I9S,1.58
K4G,0.165
F12G,0.513

# Study 2 — technique: RNA Bind-n-Seq; form: RNA; sample: in vitro; concentration: 200 nM; setting: whole 134-nt RNA, ends assumed; together with: 150 mM LiCl; relative to: input library; reading: higher = stronger binding; each molecule: 7-deaza-guanosine replaces G
# Target: Fragile X messenger ribonucleoprotein 1, C-terminal low-complexity region (Fmr1, Mus musculus, UniProt P35922)
Sequence,log2 enrichment
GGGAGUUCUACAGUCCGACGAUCCUCAAGUCCUGUGCUACACAUCGUAUGUACCGAAUCGGUUUUUGGAGGAAAGGAAAGUAUUAUGUUACGCCGUUCGGAUCUGCACUUCCAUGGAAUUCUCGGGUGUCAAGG,-0.219
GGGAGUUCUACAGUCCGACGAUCUAACUUUAGAGGAGGAUCUGAUGGAUAUGGCCGUGGACGUGGAUUUGGGGAUGGCUAUAAUGGGUAUGGAGGAGGACCUGGAGGUGGCAAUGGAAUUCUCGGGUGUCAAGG,-0.655
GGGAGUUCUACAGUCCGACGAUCGUCCUGUGCUACACAUCGUAUGUACCGAAUCGGGUUUGGGUUUUUGGGAAAAAAAGGGAAAGUAUUAUGUUACGCCGUUCGGAUCUGCACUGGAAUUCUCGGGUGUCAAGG,-1.04
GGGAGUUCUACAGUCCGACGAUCUGUGCUACACAUCGUAUGUACCGAAUCGGGUUUUUUUGGGGUUUUUUUGGGGUUUUUUUGGGGAAAGUAUUAUGUUACGCCGUUCGGAUCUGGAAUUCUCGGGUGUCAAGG,2.19
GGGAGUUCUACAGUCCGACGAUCCAAGUCCUGUGCUACACAUCGUAUGUACCGAAUCGGGGAGGGGUUUGGGGUGGGGAAAGUAUUAUGUUACGCCGUUCGGAUCUGCACUUCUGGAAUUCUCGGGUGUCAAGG,0.324
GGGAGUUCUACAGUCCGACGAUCCCUGUGCUACACAUCGUAUGUACCGAAUCGGGGAAAAAAAGGAAAAAAAGGAAAAAAAGGGAAAGUAUUAUGUUACGCCGUUCGGAUCUGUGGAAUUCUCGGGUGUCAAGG,-0.1
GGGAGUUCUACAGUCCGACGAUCGUCCUGUGCUACACAUCGUAUGUACCGAAUCGGUUUUUUGGGUUUUUUGGUUUUUUGGGAAAGUAUUAUGUUACGCCGUUCGGAUCUGCAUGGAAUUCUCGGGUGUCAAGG,-1.85
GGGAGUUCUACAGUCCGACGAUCAGUCCUGUGCUACACAUCGUAUGUACCGAAUCGGGGAGGGGAAAAAGGGGUUUGGGGAAAGUAUUAUGUUACGCCGUUCGGAUCUGCACUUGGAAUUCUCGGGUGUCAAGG,-1.23
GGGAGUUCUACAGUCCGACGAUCUCAAGUCCUGUGCUACACAUCGUAUGUACCGAAUCGGGGAAGGGGAAGGGGAAGGAAAGUAUUAUGUUACGCCGUUCGGAUCUGCACUUCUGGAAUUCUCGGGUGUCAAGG,-0.998
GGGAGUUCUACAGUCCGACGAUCUAACUUUAGAGGAGGAUCUGAUGGAUAUGGCAGUGGACGUGGAUUUGGGGAUGGCUAUACUGGGUAUGGAGGAGGACCUGGAGGUGGCAAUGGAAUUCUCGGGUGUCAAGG,-0.367
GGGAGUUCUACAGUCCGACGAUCAAGUCCUGUGCUACACAUCGUAUGUACCGAAUCGGUUUUUUUGGUGGAAAAAAAGGAAAGUAUUAUGUUACGCCGUUCGGAUCUGCACUUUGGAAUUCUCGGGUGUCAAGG,-2.73

# Study 3 — technique: RNA Bind-n-Seq; form: RNA; sample: in vitro; concentration: 365 nM; relative to: no-protein control; reading: higher = stronger binding
# Target: RNA binding protein fox-1 homolog 2, RRM domain, GST-SBP tag (RBFOX2, Homo sapiens, UniProt O43251-10, residues 100-194)
# Setting: natural RNA segment, single round, ends assumed
# Construct (chain): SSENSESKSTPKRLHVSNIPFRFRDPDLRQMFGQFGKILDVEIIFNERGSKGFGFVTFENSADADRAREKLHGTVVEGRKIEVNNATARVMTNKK
Sequence,RBNS enrichment (R)
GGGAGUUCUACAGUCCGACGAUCAUCCUGGCUAUAGUAUUGUAUACACAGGGCCACCAGCCCCGCCCUAGUGGUCAGCUCUGAGGGGGGACUGGUGACUCUGAACAGAUCGAUGUCAACAGCCAUGGUGAACCUGGAAUUCUCGGGUGCCAA,0.352
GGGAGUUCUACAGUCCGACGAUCGUCAUAAGGAGUCAGAUUCCGUGACCUCCUCUUUGAUGGAGGACACACUGAACUGAAGGGGACUUGCGCGGAUGUGGGAGAUGCAAGCCUUCGCUUUAUUUUUUUAUAACUGGAAUUCUCGGGUGCCAA,0.828
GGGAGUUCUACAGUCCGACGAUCAAUACAGUUAACUAAUUGUAAAUAUGCUGUUAACCAAAAGAGCUUUCCCUCCCUCACUUUUUCCUUUGUAAACACUCAUGACUGCUUCUCUGUCUCGAGUCAUCUCUGCAUGGAAUUCUCGGGUGCCAA,0.939
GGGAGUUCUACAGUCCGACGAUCCUCCAAUAGAGGCCUAUCCUGACUAGAGAAGACUGGUGAGGGUUGAUACGGGAUUUGAAUUCCCAGAUGGGCCCACAAGUGCUAUUUAUUGUAUAUUUAUUGUUUGGAUGUGGAAUUCUCGGGUGCCAA,0.768
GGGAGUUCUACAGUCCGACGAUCAGUUGAUAGAAUUCAAAAAGGCCAUCUUUUUGCUUUCACAUCAAUAAAAUUUACCAAGUAAUAGAUCAGUACUCACUAAUAUUUUUGAGACCAUAGUUGUCUGGUCAGAAUGGAAUUCUCGGGUGCCAA,0.301
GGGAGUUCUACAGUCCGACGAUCUUGUUAUCCCACGUUCAGGCCAGGAUUAGUACAGAGCUGGUUAAGGCUUUCAUUUCACUUCAGAUUCAGCGGUGGGAGAGUGAGCUAGUACUGUCCUAACCCUGGCUUUUUGGAAUUCUCGGGUGCCAA,0.212
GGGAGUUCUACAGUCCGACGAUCUCAGAUGACGUCCCCAUGGUGAUAGCCUGAAGAGCUUUCCUCACUAGAAACCAAAUGGUGUAAAUAUUUUAUUUGAUAAAGAUAGUUGAUGGUUUAUUUUAAAAGAUGCAUGGAAUUCUCGGGUGCCAA,2.97
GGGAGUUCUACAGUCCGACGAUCGCUGAUGUUCGGUCCUGGCAAACAUUGAGUUAUUUUGAGCUGUGAAGGCAGUCGUCUCUGUUACACAGUGGCAGCUCUUGAGUUAUGCACUGUGAAGAAUGAGAAGGGAAUGGAAUUCUCGGGUGCCAA,0.402
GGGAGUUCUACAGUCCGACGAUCUACCAUGUAAUGUAACAUCAAUUAAGAGAAUAUCUGUAGUUACCAUAUUUAAGAUUUGAGAUACCAAAAGAAUGUCCCUCAAGGGACAUUGCCAUUUAUUCUAGAAUUAAUGGAAUUCUCGGGUGCCAA,0.433
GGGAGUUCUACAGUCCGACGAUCAGUAAGCAGACUUAGGAGAAUAUUUGUUUUAAAAUUCAUGUAACAGAUUUCCCUUUGAAGAAACACUUCUGACAUGGGUAAUUUCUCAAUCAGGGGUCACUUUUAUGAACUGGAAUUCUCGGGUGCCAA,0.436
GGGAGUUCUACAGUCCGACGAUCUUCACUUAGUCAACAAGUGAUAAGUAAGUAACUUUCAUGUGCUAGGUGCUGUUAGACACAGAAGGUAAAUAUGUUCUUAACAAAAUGCUUUCUGAAAUUUUGAACCCCACUGGAAUUCUCGGGUGCCAA,0.25
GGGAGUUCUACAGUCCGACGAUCUGCUGGGUACGCUUCUCUCGUGGGGAAGGGCCGUGUCCAGGCAUGUGGAUGGCUUGAAGACUACUGAUGCUUUCCUCUGAAUUGUUCUUUGCACUGAAGGAGGACUUGGAUGGAAUUCUCGGGUGCCAA,12.9

# Further values, each from its own experiment
Molecule,target,assay,system,setting,how to read,quantity,value
"PhoQ, residues 284 288 289 292 302 303 AEGLLW","PhoP, residues 12 14 15 18 19 TQAIL (Escherichia coli, UniProt P23836)","Sort-seq, measured: YFP reporter",E. coli,"PhoQ-PhoP variant library, together with: 10 µM Mg2+","relative to: high Mg2+ state, higher = stronger signaling",fold induction,19.1

# Excerpt of the above (study 2):
Sequence,log2 enrichment
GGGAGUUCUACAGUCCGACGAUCUAACUUUAGAGGAGGAUCUGAUGGAUAUGGCAGUGGACGUGGAUUUGGGGAUGGCUAUACUGGGUAUGGAGGAGGACCUGGAGGUGGCAAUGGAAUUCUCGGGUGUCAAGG,-0.367
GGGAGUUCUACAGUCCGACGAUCAGUCCUGUGCUACACAUCGUAUGUACCGAAUCGGGGAGGGGAAAAAGGGGUUUGGGGAAAGUAUUAUGUUACGCCGUUCGGAUCUGCACUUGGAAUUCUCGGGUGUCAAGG,-1.23
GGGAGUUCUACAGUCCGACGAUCUAACUUUAGAGGAGGAUCUGAUGGAUAUGGCCGUGGACGUGGAUUUGGGGAUGGCUAUAAUGGGUAUGGAGGAGGACCUGGAGGUGGCAAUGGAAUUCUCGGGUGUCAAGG,-0.655
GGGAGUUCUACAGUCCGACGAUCAAGUCCUGUGCUACACAUCGUAUGUACCGAAUCGGUUUUUUUGGUGGAAAAAAAGGAAAGUAUUAUGUUACGCCGUUCGGAUCUGCACUUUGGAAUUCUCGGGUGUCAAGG,-2.73
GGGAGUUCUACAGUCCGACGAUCUCAAGUCCUGUGCUACACAUCGUAUGUACCGAAUCGGGGAAGGGGAAGGGGAAGGAAAGUAUUAUGUUACGCCGUUCGGAUCUGCACUUCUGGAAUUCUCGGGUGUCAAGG,-0.998
